{"data": "Published values collected from several papers", "note": "Each numbered part is a random draw from the data of one study; scales do not carry over between parts. Changes are numbered by the printed parent chain."}
{"data": "Study 1", "target": "RING finger protein unkempt homolog, zinc fingers 1-6, GST-SBP tag (UNK, Homo sapiens, UniProt Q9C0B0, residues 30-357)", "technique": "RNA Bind-n-Seq", "molecule type": "RNA", "medium": "in vitro", "concentration": "not given", "notes": "RNA with constant flanks, human-mouse chimeric sites, ends assumed", "relative to": "input RNA pool", "direction": "higher = stronger binding", "Construct (chain)": "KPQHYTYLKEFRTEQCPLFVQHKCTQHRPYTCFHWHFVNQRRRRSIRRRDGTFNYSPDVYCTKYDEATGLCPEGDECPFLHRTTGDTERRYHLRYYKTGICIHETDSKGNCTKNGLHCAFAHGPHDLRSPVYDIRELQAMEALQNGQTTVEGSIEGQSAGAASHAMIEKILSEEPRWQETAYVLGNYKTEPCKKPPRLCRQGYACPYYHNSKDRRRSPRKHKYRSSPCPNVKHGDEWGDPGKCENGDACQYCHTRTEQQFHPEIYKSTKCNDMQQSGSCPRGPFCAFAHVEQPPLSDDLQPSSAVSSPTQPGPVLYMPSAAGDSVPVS"}
{"Oligonucleotide": "GGGAGUUCUACAGUCCGACGAUCAUGGAACAUUUCGAUGCGUCACUCAGUACCUAUUUCAAGGCCUUCCUAGGCCCUCGAGAUACAAGAGUAAAAGGAUGGUUCCUCCUGGACAAUUACAUCCCUACGUUUGUCUGUUCUGUUCAACAGAGGAUUGAGCAUCA", "bound/input enrichment [ratio]": 0.0871}
{"Oligonucleotide": "GGGAGUUCUACAGUCCGACGAUCAUGGAACAUUUCGAUGCAUCACUUAGUACCUAUUUCAAGGCCUUCCUAGGCCCUCGAGAUACAAGAGUCAAAGGAUGGUUCCUCCUGGACAAUUACAUCCCUACGUUUGUCUGUUCUGUUCAACAGAGGAUUGAGCAUCA", "bound/input enrichment [ratio]": 0.187}
{"Oligonucleotide": "GGGAGUUCUACAGUCCGACGAUCCCCCAAUUACCAUCUGUGGUCUGGAACUGCACUCUCUUUUUUAAAAAACAUGUAUACAUUUUAGGGCUGUAGAUUUAUUUUCCUGGUUUUGUUUUUCUUGCUUAUUCUUUGAGCACAGAACAACAGAGGAUUGAGCAUCA", "bound/input enrichment [ratio]": 4.04}
{"Oligonucleotide": "GGGAGUUCUACAGUCCGACGAUCGCACUUGGGAAUGUAAUCAGCGCCUUGGGAGACAAGAGCAAGAGAGCCACCCAUGUCCCUUACAGAGACUCUAAGCUGACAAGACUCUUGCAGGAUUCCCUUGGGGGUAACAGCCAAACCCAACAGAGGAUUGAGCAUCA", "bound/input enrichment [ratio]": 0.101}
{"data": "Study 2", "target": "Ras GTPase-activating protein-binding protein 1, full length (G3BP1, Homo sapiens, UniProt Q13283)", "technique": "RNA Bind-n-Seq", "molecule type": "RNA", "medium": "in vitro", "concentration": "200 nM", "notes": "whole 134-nt RNA, ends assumed", "with": "150 mM LiCl", "relative to": "input library", "direction": "higher = stronger binding", "each molecule": "7-deaza-guanosine replaces G", "UniProt Q13283, sequence (whole entry, looked up)": "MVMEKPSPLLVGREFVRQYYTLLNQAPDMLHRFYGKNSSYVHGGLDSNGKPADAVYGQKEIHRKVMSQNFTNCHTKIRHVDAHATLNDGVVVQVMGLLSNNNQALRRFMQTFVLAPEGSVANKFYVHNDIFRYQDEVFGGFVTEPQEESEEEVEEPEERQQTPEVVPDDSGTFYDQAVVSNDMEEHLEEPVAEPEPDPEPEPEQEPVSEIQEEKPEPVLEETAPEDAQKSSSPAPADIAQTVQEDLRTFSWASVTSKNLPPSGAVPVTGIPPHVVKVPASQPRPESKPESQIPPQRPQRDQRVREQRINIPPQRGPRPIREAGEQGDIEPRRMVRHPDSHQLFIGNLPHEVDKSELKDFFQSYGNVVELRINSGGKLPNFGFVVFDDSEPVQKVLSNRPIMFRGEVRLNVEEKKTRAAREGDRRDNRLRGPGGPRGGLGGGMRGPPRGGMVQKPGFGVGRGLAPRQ"}
{"Oligonucleotide": "GGGAGUUCUACAGUCCGACGAUCCCUCAAGUCCUGUGCUACACAUCGUAUGUACCGAAUCGGGCGGGCGGCGGGGAAAGUAUUAUGUUACGCCGUUCGGAUCUGCACUUCCAGUGGAAUUCUCGGGUGUCAAGG", "log2 enrichment": 0.636}
{"Oligonucleotide": "GGGAGUUCUACAGUCCGACGAUCUAACUUUCGAGGAGGAUCUGAUGGAUAUGGCAGUGGACGUGGAUUUGGGGAUGGCUAUAAUGGGUAUGGAGGAGGACCUGGAGGUGGCAAUGGAAUUCUCGGGUGUCAAGG", "log2 enrichment": 0.00449}
{"Oligonucleotide": "GGGAGUUCUACAGUCCGACGAUCUCCUGUGCUACACAUCGUAUGUACCGAAUCGGGGUUUUUUGGUUUUUUGGUUUUUUGGGGAAAGUAUUAUGUUACGCCGUUCGGAUCUGCUGGAAUUCUCGGGUGUCAAGG", "log2 enrichment": -0.22}
{"data": "Further values, each from its own experiment", "ABI1": "ABI1, truncated, D143A, DHFR fusion (Arabidopsis thaliana)", "P1": "PYL1, truncated, DHFR fusion (Arabidopsis thaliana); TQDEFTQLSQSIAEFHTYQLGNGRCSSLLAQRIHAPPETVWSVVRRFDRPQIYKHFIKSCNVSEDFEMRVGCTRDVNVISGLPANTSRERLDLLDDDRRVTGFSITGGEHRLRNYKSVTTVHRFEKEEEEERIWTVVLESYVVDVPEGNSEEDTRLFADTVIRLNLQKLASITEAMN; partner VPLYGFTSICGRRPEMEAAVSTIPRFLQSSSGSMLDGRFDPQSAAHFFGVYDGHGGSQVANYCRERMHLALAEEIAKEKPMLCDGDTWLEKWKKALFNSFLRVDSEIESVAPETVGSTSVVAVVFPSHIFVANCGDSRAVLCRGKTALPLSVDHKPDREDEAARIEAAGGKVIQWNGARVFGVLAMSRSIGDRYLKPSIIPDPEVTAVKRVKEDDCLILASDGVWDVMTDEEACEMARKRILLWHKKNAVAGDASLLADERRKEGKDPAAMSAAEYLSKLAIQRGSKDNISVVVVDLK"}
{"Molecule": "P1 Q2G", "target": "ABI1", "assay": "DHFR PCA, deep sequencing", "test system": "yeast", "setting": "methotrexate growth selection, single substitutions, with: (+)-ABA 0.0091 µM", "how to read": "relative to: wild-type fitted maximum, higher = stronger binding", "endpoint": "relative binding score", "value": "7.27%"}
{"Molecule": "PhoQ, residues 284 288 289 292 302 303 SIHMAM", "target": "PhoP, residues 12 14 15 18 19 LWHVM (Escherichia coli, UniProt P23836)", "assay": "Sort-seq, refers to: YFP reporter", "test system": "E. coli", "setting": "PhoQ-PhoP variant library, with: 10 µM Mg2+", "how to read": "relative to: high Mg2+ state, higher = stronger signaling", "endpoint": "fold induction", "value": 3.79}
{"Molecule": "P1 S11A", "target": "ABI1", "assay": "DHFR PCA, deep sequencing", "test system": "yeast", "setting": "methotrexate growth selection, single substitutions, with: (+)-ABA 710 µM", "how to read": "relative to: wild-type fitted maximum, higher = stronger binding", "endpoint": "relative binding score", "value": "90.9%"}
{"Molecule": "P1 L91C", "target": "ABI1", "assay": "DHFR PCA, deep sequencing", "test system": "yeast", "setting": "methotrexate growth selection, single substitutions, with: (+)-ABA 710 µM", "how to read": "relative to: wild-type fitted maximum, higher = stronger binding", "endpoint": "relative binding score", "value": "96%"}
{"note": "For quick reference, copied from above (study 2):"}
{"Oligonucleotide": "GGGAGUUCUACAGUCCGACGAUCUAACUUUCGAGGAGGAUCUGAUGGAUAUGGCAGUGGACGUGGAUUUGGGGAUGGCUAUAAUGGGUAUGGAGGAGGACCUGGAGGUGGCAAUGGAAUUCUCGGGUGUCAAGG", "log2 enrichment": 0.00449}
{"Oligonucleotide": "GGGAGUUCUACAGUCCGACGAUCUCCUGUGCUACACAUCGUAUGUACCGAAUCGGGGUUUUUUGGUUUUUUGGUUUUUUGGGGAAAGUAUUAUGUUACGCCGUUCGGAUCUGCUGGAAUUCUCGGGUGUCAAGG", "log2 enrichment": -0.22}
